Published values collected from several papers.
Lines come from different studies, so protocols differ. ± marks the error that the study gave.

For `C[C@]12C[C@H](c3ccc(S(C)(=O)=O)cc3)C3=C4CCC(=O)C=C4CC[C@H]3[C@@H]1CC[C@@]2(O)C(F)(F)C(F)(F)F`, the fraction unbound was 0.05 (rat, plasma).
The tracer uptake of `O=C(O)C1CN(Cc2ccc(-c3noc(-c4ccc(OCC[18F])c(C(F)(F)F)c4)n3)cc2)C1` is reported as 0.251 %ID/g (rat, spleen; intravenous, 1 h).
`COCC1CN(C2CCN(c3cc(OC)c(Nc4ncc(Br)c(Nc5ccc6c(c5P(C)(C)=O)OCCO6)n4)cc3C)CC2)C1` — result for “treatment-related AST increased, all grades”: 33.3% (human patients; oral, 10 to 240 mg once daily).
The tissue concentration of `CC/C=C\C/C=C\C/C=C\C/C=C\C/C=C\CCCCOC(CC)C(=O)O` (stereo not shown) is reported as 34.5 µg equivalents/g tissue (radioactivity, 14C-labelled; Wistar rat, male, kidney medulla; oral, 100 mg/kg, 1 day).
For `CC(C)[C@H](NC(=O)CNC(=O)[C@H](CCC(N)=O)NC(=O)[C@H](C)N)C(=O)O`, “volume of distribution” read 2.2 L/kg (healthy volunteers, LPS endotoxaemia, plasma; intravenous, 90 mg/kg/h, 2 h infusion, geometric mean, added: LPS 2 ng/kg).
Under “average fluorescence lifetime”, `O=c1[nH]c(=O)n(C2OC(CO)C(O)C2O)cc1-n1nnc2c1CCC1C(CO)C1CC2` (mixture of isomers) is recorded as 2.7 ns (frequency-domain fluorometry; methanol).
For `C#CCOc1ccc(/C=C2\SC(=O)N(CC(=O)NCc3ccccc3)C2=O)cc1`, “Kirkwood-Buff integral G1,3” read -258 cm³/mol (inverse Kirkwood-Buff integrals; binary solvent mixture; 298.15 K, mole fraction x1 0.95).
Under “biliary excretion of radioactivity”, `OC1(C(F)(F)F)CCN(c2nc(Nc3ccnc(C(F)(F)F)c3)nc(-c3cccc(C(F)(F)F)n3)n2)C1` (stereo not shown) is recorded as 5.67 ± 0.75% (Sprague-Dawley rat, both sexes, bile; oral, 10.1 mg/kg, 48 h, added: [14C]-labelled compound; reference: dose).
For `CCOc1c(C(C)(C)O)sc2cnc(Nc3ccc(N4CCC(N5CC6(COC6)C5)CC4)cc3OC)nc12`, “action potential amplitude change” read -4 ± 2% (New Zealand rabbit, male, isolated Purkinje fibres; 30 µM, 45 min, pacing 0.25 Hz).
Under “fluorescence quantum yield”, `COc1ccc2cc(-c3ccc(-c4ccc(C)cn4)nc3)oc2c1` is recorded as 0.15 (aqueous HEPES buffer; pH 7.4, zinc(II)-saturated form, added: quinine bisulfate reference).
`CCCCC/C=C/C=C/C(=O)NCC(C)C` has a relative error of 8.08% (rat plasma; 4000 ng/mL, three freeze-thaw cycles high QC; reference: nominal concentration).
`CCCCCCCOc1ccc(CC[C@](N)(CO)COP(=O)(O)O)cc1C(F)(F)F`: “dose excreted in urine” under 0.05% (healthy male humans, urine; oral, day 21).
The measured concentration of `Cc1ccccc1/N=N/c1ccc(/N=N/c2c(O)ccc3ccccc23)c(C)c1` is reported as 5.15 µg/L (rat whole blood QC samples; 5.0 µg/L, 12 h, room temperature, short-term stability).
For `CCCC[C@H](NC(=O)[C@H](CC(C)C)N(C)C(=O)CNC(=O)[C@@H](NC(=O)[C@H](Cc1ccccc1)NC(=O)[C@H](CCCCN)NC(=O)[C@@H](N)CC(=O)O)C(C)C)C(N)=O`, “systolic pressure decrease” read under 8% (anaesthetized spinalized rat; IV, dose not given, not significant; reference: baseline).
For `CNC(=O)N[C@]1(C)CCC[C@@]2(C)C3CC[C@@]4(C)C[C@]3(CCC21)CC4=O` (single isomer, unassigned), the relative error was -7.2% (rat plasma; 400 ng/mL, 8 h, room temperature, short-term stability; reference: nominal concentration).
`CC(C)[C@H](NC(=O)CNC(=O)[C@H](CCC(N)=O)NC(=O)[C@H](C)N)C(=O)O` — result for “volume of distribution”: 10 L/kg (LC-MS/MS; human, male, plasma; intravenous, 20 mg/kg three times daily, day 2, first dose, 10 min infusion, geometric mean).
For `COC(=O)c1ccc(-c2cn(Cc3cc(Cl)ccc3O[11CH3])nn2)cc1`, “distribution volume VT” read 0.943 mL/cm³ (PET, 1TCM; rhesus macaque, cerebellum; dose not given).
For `CC[C@H](C)[C@H](NC(=O)[C@H](CC(C)C)NC(=O)[C@H](Cc1c[nH]c2ccccc12)NC(=O)[C@H](C)NC(=O)[C@@H](NC(=O)[C@H](Cc1ccccc1)NC(=O)[C@H](CC(=O)O)NC(=O)[C@H](CCCNC(=N)N)NC(=O)[C@H](C)NC(=O)[C@H](C)NC(=O)[C@H](CC(C)C)NC(=O)[C@H](C)NC(=O)[C@H](CC(=O)O)NC(=O)[C@H](CC(C)C)NC(=O)[C@@H](NC(=O)[C@@H](NC(=O)[C@H](C)NC(=O)[C@H](CC(C)C)NC(=O)[C@H](CCC(=O)O)NC(=O)[C@H](CO)NC(=O)[C@H](CO)NC(=O)[C@H](Cc1ccccc1)NC(=O)[C@@H](NC(=O)CNC(=O)[C@H](CCC(=O)O)NC(=O)CNC(=O)[C@@H](N)Cc1c[nH]cn1)[C@@H](C)O)[C@@H](C)O)[C@@H](C)CC)[C@@H](C)CC)C(=O)N[C@@H](C)C(=O)N[C@H](C(=O)N[C@@H](CCCCN)C(=O)N[C@H](C(=O)N[C@H](C(=O)N[C@@H](CC(=O)O)C(=O)N[C@@H](CCCCN)C(=O)O)[C@@H](C)O)[C@@H](C)CC)[C@@H](C)O`, the AUCtau was 0.211 µM·h (immunoaffinity LC-MS/MS; healthy human subjects, plasma; subcutaneous, 10 mg once weekly, day 36 after 6 doses, steady state, geometric mean).
With `CC(C)[C@H](NC(=O)[C@@H]1CCCN1C(=O)[C@H](CCCNC(=N)N)NC(=O)[C@H](CS)NC(=O)[C@H](Cc1c[nH]c2ccccc12)NC(=O)[C@H](CCCNC(=N)N)NC(=O)[C@@H](Cc1ccccc1)NC(=O)[C@H](Cc1c[nH]cn1)NC(=O)[C@H](CCC(=O)O)NC(=O)[C@H](CS)NC(=O)[C@H](CS)NC(=O)CNC(=O)[C@@H]1CC(=O)N[C@@H](CCCNC(=N)N)C(=O)NCC(=O)N[C@@H](CC(=O)O)C(=O)N[C@H](Cc2ccc(O)cc2)C(=O)N1)C(N)=O` [technetium-99m labelled] the excretion was 73 ± 9.29% (C57 mice B16/F1 melanoma female, urine; iv, 0.037 MBq, 2 h).
`CC[C@H](C)[C@H](NC(=O)[C@H](C)NC(=O)CNC(=O)[C@H](Cc1ccccc1)NC(=O)[C@H](CC(N)=O)NC(=O)[C@H](CC(N)=O)NC(=O)[C@H](CO)NC(=O)[C@H](CO)NC(=O)[C@H](Cc1c[nH]cn1)NC(=O)[C@@H](NC(=O)[C@H](CC(C)C)NC(=O)[C@H](Cc1ccccc1)NC(=O)[C@H](CC(N)=O)NC(=O)[C@H](C)NC(=O)[C@H](CC(C)C)NC(=O)[C@H](CCCNC(=N)N)NC(=O)[C@H](CCC(N)=O)NC(=O)[C@@H](NC(=O)[C@H](C)NC(=O)[C@@H]1CSSC[C@H](NC(=O)[C@@H](N)CCCCN)C(=O)N[C@@H](CC(N)=O)C(=O)N[C@@H]([C@@H](C)O)C(=O)N[C@@H](C)C(=O)N[C@@H]([C@@H](C)O)C(=O)N1)[C@@H](C)O)C(C)C)C(=O)N[C@@H](CC(C)C)C(=O)N1CCC[C@H]1C(=O)N1CCC[C@H]1C(=O)N[C@H](C(=O)N[C@@H](CC(N)=O)C(=O)N[C@H](C(=O)NCC(=O)N[C@@H](CO)C(=O)N[C@@H](CC(N)=O)C(=O)N[C@H](C(=O)N[C@@H](Cc1ccc(O)cc1)C(N)=O)[C@@H](C)O)C(C)C)[C@@H](C)O` — result for “collision cross section”: 553 ± 5.9 Å² (ion mobility mass spectrometry; ammonium acetate; pH 7.5, monomer ion charge +2).
`CCC1CC2C(C)=CC3C(=O)CCCC3C=CC(C)=CC2C(=O)O1` (stereo not shown) gave a concentration of 3.4 ± 2.9 ng/g (male ICR mice, brain; oral, 30 mg/kg, 60 min).
`C[C@H](N)[C@H]1O[C@@H](O[C@@H]2[C@@H](O)[C@H](N)C[C@H](N)[C@H]2O[C@H]2O[C@H]([C@@H](C)O)[C@@H](O)[C@H](O)[C@H]2N)[C@H](O)[C@@H]1O` gave an IC50 of 15 µM (outer hair cell loss; CBA/J mice, cochlear explant; 72 h).
`COc1ccc2c(c1)c(CC(=O)Nc1nnc(CCCCc3ccc(NC(=O)Cc4cccc(OC(F)(F)F)c4)nn3)[se]1)cn2C`: “fraction in blood cells” 30% (ICR mouse, whole blood; 0.048 mg/mL, 0.033 h, 37 °C).
For `C[C@H]1NSc2nc(=O)c3[nH]ccc3n2Cc2ccc(Cl)cc21`, exposure ratio read “not detected” (rat, male, plasma; 125 mg/kg; reference: rat over human 10 mg).
For `CC(C)(O)c1ncc([S@](N)(=O)=NC(=O)Nc2c3c(cc4c2CCC4)CCC3)s1`, the Tmax was 4 h (healthy human volunteers, plasma; oral, 50 mg twice daily, day 1, fed, enteric-coated tablet).
`COc1ccc(COC[C@](O)(CNCc2ccc(F)cc2)[C@@H]2CC[C@@H](C)C[C@H]2OCc2ccc(OC)cc2)cc1` gave a permeability of 33.2 ± 3.3 ×10⁻⁶ cm/s (PAMPA-GI; phosphatidylcholine-cholesterol membrane; 500 µM, 4 h, pH 6.5, 37 °C, 5% DMSO).
The uptake ratio of `CCCC[C@H](NC(=O)CNC(=O)CNC(=O)CN1CCN(CC(=O)O)CCN(CC(=O)O)CC1)C(=O)N[C@H]1CC(=O)NCCCC[C@@H](C(N)=O)NC(=O)[C@H](Cc2c[nH]c3ccccc23)NC(=O)[C@H](CCCNC(=N)N)NC(=O)[C@@H](Cc2ccccc2)NC(=O)[C@H](Cc2c[nH]cn2)NC1=O` [copper-64 labelled] is reported as 6.1 (female C57 mouse, B16/F1 melanoma; intravenous, 0.037 MBq, 0.5 h; reference: tumour over lung).
`N=C(N)NCCC[C@@H]1NC(=O)[C@H](Cc2c[nH]c3ccccc23)NC(=O)[C@@H](CC2CCCCC2)NC(=O)[C@@H]2CCCN2C(=O)[C@@H](NC(=O)CCc2ccccc2)CCCNC1=O` — result for “apparent central volume (V1/F)”: 0.06 µg/(ng/g) (C57BL/6J mice, spinal cord; intraperitoneal, 1 mg/kg, two-compartment model).

Repeated from above:
For `CCCC[C@H](NC(=O)[C@H](CC(C)C)N(C)C(=O)CNC(=O)[C@@H](NC(=O)[C@H](Cc1ccccc1)NC(=O)[C@H](CCCCN)NC(=O)[C@@H](N)CC(=O)O)C(C)C)C(N)=O`, “systolic pressure decrease” read under 8% (anaesthetized spinalized rat; IV, dose not given, not significant; reference: baseline).
